Experimental data collected from several papers.
Parts stem from different laboratories: compare values within a part only.

Series 1
Target: Replicase polyprotein 1ab, main protease (rep, Severe acute respiratory syndrome coronavirus 2, UniProt P0DTD1)
Read-out: enzyme activity
Action: inhibitor
Concentration: 20 µM
Setting: primary screen
Quantity: inhibition
Oc1ccc2c3c1O[C@H]1c4[nH]c5c(c4C[C@@]4(O)[C@@H](C2)N(CC2CC2)CC[C@]314)C[C@@]1(O)[C@H]2Cc3ccc(O)c4c3[C@@]1(CCN2CC1CC1)[C@H]5O4: 93.2%
CCOC(=O)Nc1ccc(NCc2ccc(F)cc2)nc1N: 39.7%
CC[C@]1(O)C[C@H]2C[N@@](CCc3c([nH]c4ccccc34)[C@@](C(=O)OC)(c3cc4c(cc3OC)N(C=O)[C@H]3[C@@](O)(C(=O)OC)[C@H](OC(C)=O)[C@]5(CC)C=CCN6CC[C@]43[C@@H]65)C2)C1: 74.1%

Series 2
Target: Replicase polyprotein 1ab, nsp13 helicase (rep, Severe acute respiratory syndrome coronavirus 2, UniProt P0DTD1)
Action: inhibitor
Concentration: 20 µM
Quantity: inhibition
CCCCc1cc2ccccc2c(OCCN(C)C)n1: 6.55%
Cc1ncc(CNC(=O)N(CCCl)N=O)c(N)n1: 6.11%
CCC(CC)O[C@@H]1C=C(C(=O)O)C[C@H](N)[C@H]1NC(C)=O: 0.92%
CCOc1ccc(/N=C(\C)Nc2ccc(OCC)cc2)cc1: 5.67%
C[C@@H]1C[C@H]2[C@@H]3C[C@H](F)C4=CC(=O)C=C[C@]4(C)[C@@]3(F)[C@@H](O)C[C@]2(C)[C@@]1(O)C(=O)COC(=O)C(C)(C)C: 4.99%
CN1CCCN=C1/C=C/c1cccs1: 12.6%
COc1cc(OC)cc(C(=O)NNC(=O)Nc2cccc3ccccc23)c1: 5.82%
CC(C)(O)CNc1nc(Nc2ccnc(C(F)(F)F)c2)nc(-c2cccc(C(F)(F)F)n2)n1: 4.15%
CCCCC(=O)OCC(=O)[C@]1(O)Cc2c(O)c3c(c(O)c2[C@@H](O[C@H]2C[C@H](NC(=O)C(F)(F)F)[C@H](O)[C@H](C)O2)C1)C(=O)c1c(OC)cccc1C3=O: -0.72%
Cc1ccc(/C=N/NC(=O)c2ccccc2Oc2ccccc2)o1: 1.76%
CC(C(=O)O)c1ccc2c(c1)Cc1cccnc1O2 (stereo not shown): 3.99%
c1ccc(Oc2nc(NC3CCCCC3)c3[nH]cnc3n2)cc1: -2.2%
NC(=O)NS(=O)(=O)c1ccc(N)cc1: 4.13%
C[C@@H]1CC[C@@]2(OC1)O[C@H]1C[C@H]3[C@@H]4CC=C5C[C@@H](O[C@@H]6O[C@H](CO)[C@@H](O[C@@H]7O[C@@H](C)[C@H](O)[C@@H](O)[C@H]7O)[C@H](O)[C@H]6O[C@@H]6O[C@@H](C)[C@H](O)[C@@H](O)[C@H]6O)CC[C@]5(C)[C@H]4CC[C@]3(C)[C@H]1[C@@H]2C: 5.29%
O=c1[nH]c(=O)n(Cl)c(=O)n1Cl: 3.4%
CCc1cc2c(s1)-n1c(C)nnc1CN=C2c1ccccc1Cl: 0.08%
O=C(Nc1cccc(Nc2ncc(Br)c(NCCc3cnc[nH]3)n2)c1)N1CCCC1: 7.54%
CCCCCCCCCCCCCCCCCCCCCCO: 6.61%
CC1(C)CCC(C)(C)c2c1cc(C(=O)Nc1cc(F)c(C(=O)O)c(F)c1)c(O)c2Cl: 2.4%
CC(=O)SCC(Cc1ccccc1)C(=O)NCC(=O)OCc1ccccc1 (stereo not shown): 2.95%

Series 3
Target: Sal-like protein 4, full length isoform A (SALL4, Homo sapiens, UniProt Q9UJQ4, residues 1-1053)
Chain of UniProt Q9UJQ4 (whole entry, looked up): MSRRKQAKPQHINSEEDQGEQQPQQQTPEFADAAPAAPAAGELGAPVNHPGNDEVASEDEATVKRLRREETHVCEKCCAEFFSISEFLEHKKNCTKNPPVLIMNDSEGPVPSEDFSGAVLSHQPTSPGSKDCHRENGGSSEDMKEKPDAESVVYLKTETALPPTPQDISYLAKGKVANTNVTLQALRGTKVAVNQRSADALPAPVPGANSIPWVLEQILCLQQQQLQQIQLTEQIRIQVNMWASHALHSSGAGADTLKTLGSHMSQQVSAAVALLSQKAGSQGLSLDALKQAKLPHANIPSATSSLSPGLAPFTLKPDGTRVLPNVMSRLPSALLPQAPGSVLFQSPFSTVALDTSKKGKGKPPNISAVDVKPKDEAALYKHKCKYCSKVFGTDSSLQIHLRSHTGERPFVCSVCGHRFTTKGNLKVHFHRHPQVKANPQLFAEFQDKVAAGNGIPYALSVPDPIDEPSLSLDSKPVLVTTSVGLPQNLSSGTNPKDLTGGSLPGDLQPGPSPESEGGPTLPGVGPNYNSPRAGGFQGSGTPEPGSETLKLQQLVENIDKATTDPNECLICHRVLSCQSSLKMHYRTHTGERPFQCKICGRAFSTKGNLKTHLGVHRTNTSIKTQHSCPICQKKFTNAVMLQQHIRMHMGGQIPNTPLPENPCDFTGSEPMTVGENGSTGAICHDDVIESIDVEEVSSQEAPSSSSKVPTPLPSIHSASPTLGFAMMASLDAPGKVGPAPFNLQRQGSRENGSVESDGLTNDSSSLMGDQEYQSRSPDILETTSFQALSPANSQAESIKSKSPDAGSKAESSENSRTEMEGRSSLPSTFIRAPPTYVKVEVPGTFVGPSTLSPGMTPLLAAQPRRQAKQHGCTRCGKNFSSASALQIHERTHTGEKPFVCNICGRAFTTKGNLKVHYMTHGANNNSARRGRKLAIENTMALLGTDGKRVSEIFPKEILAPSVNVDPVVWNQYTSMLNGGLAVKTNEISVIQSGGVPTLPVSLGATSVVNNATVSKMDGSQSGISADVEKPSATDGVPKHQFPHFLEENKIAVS
Technique: universal PBM
Molecule type: double-stranded DNA, one strand shown
Matrix: in vitro
Concentration: 600 nM
Setting: 8-mer, flanks averaged, mean of replicates
Direction: higher = stronger binding
Quantity: E-score
CCACTCCG: -0.181
TAGGGACA: 0.0612
AGTACTGC: -0.129
CATTAAAC: 0.291
TAGGCATA: 0.178
CAATATTG: 0.356
ATTCGCAG: 0.11
CACGAATC: -0.0842

Series 4
Cell line: HEK-293T/ACE2
Read-out: pseudovirus infection
Organism: VSV pseudotyped with SARS-CoV-2 spike
Concentration: 10 µM
Time: 16 h
Reference: vehicle-treated
Quantity: GFP-positive cells
Fc1ccc([C@@H]2CCNC[C@H]2COc2ccc3c(c2)OCO3)cc1: 21%
CC1=C(/C=C/C(C)=C/C=C/C(C)=C\C(=O)O)C(C)(C)CCC1: 56.1%
O=NN(CCCl)C(=O)NC1CCCCC1: 66.4%
Cc1ccnc2c1NC(=O)c1cccnc1N2C1CC1: 66.4%

Series 5
Target: Histone acetyltransferase KAT6A, winged helix 1, GST fusion (KAT6A, Homo sapiens, UniProt Q92794, residues 1-85)
Technique: protein binding microarray
Molecule type: double-stranded DNA, one strand shown
Matrix: in vitro
Concentration: not given
Setting: 8-mer, flanks averaged, mean of 2 arrays, mostly near background
Reference: not given
Direction: higher = stronger binding
Quantity: E-score
Target sequence (chain): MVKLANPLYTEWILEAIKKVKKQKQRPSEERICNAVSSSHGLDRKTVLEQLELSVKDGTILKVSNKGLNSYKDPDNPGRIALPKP
CGTCACTA: -0.0367
ATGATATC: -0.169
ATTGGGCA: -0.199
AGCAAATA: -0.167
AGCCCATA: -0.154
AGGGAGAA: -0.31
ACATACTC: -0.122
ACACAAAG: -0.172

Repeated from above (series 2):
CCC(CC)O[C@@H]1C=C(C(=O)O)C[C@H](N)[C@H]1NC(C)=O: 0.92%
CCCCc1cc2ccccc2c(OCCN(C)C)n1: 6.55%
CCCCCCCCCCCCCCCCCCCCCCO: 6.61%
c1ccc(Oc2nc(NC3CCCCC3)c3[nH]cnc3n2)cc1: -2.2%
